Results pooled from the literature.
Numbered parts are unrelated; each lists some results of a single study.

Block 1 — organism: Saccharomyces cerevisiae; read-out: binding; method: competitive growth deep sequencing; form: peptide; strain: cyclin E1-Cln2 fusion strain; notes: peptide tiling library; reading: direction not given
Sequence	enrichment score
EPRNLLSLFEDTLDPT	1.1
ATNSSHTDAHEILVSD	0.586
YLYLLLTQSLWCRV	-0.399
QNPCGSKACRRLFGPV	0.787
PHKTFRKLRLFDTPHT	-0.124
EHCRVLFLDHVMYTIH	-0.575
DVSERGYVILPNDYFE	0.686
HPESPPRKRLKSKGSD	3.51
AEHPKPSACRNLFGPV	2.1
ASVLSKPIFCFVKD	0.768
SPPRGRRLFPPGPAGF	0.202
VKRLNFRSEEME	-0.638
RTEALEQGGLPKKLIF	1.57
LENIEPLQVSFAVLSS	1.53

Block 2 — method: RNA Bind-n-Seq; form: RNA; sample: in vitro; concentration: 365 nM; reference: no-protein control; reading: higher = stronger binding
Target: RNA binding protein fox-1 homolog 2, RRM domain, GST-SBP tag (RBFOX2, Homo sapiens, UniProt O43251-10, residues 100-194)
Notes: natural RNA segment, single round, ends assumed
Shared flanks, not repeated: GGGAGUUCUACAGUCCGACGAUC … UGGAAUUCUCGGGUGCCAA
Residues (chain): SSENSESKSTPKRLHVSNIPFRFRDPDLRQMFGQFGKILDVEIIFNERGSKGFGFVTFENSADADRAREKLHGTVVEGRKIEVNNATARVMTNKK
Sequence	RBNS enrichment (R)
AGUUUUCAGAUUGGAGAUUCAAGAUUUGUUCCACUUUACAAGCAAGAGGAAAAAAAAGCAACCUUCAAACUAAUUCUCCAUGGGGGCUCUCCAUGUUACCCUCCACUCCU	0.37
UCAUAGUUUGCAGUGUCCUAGGUAGCACUUGGGGAGCCAGGUGCAUUCAGGGUCAGUAGGGAGGACAAAAUAGGGGGCUCUACGUGCAGUGAGGAAAGGCUGCUGUCAUG	1.9
AAAUAAGGAAAAUGAUACUGCUGGUUGGUUCCUGCUAGCAUCUCUGAACAAAGGACAAAGGGAAAGAAUGCGCUGCUUGAUAAAAUUAACCAAAUUCUAGCAUCUCAGAG	2.86
GAUAGAGGCAACUCCCAGGCCAGUGAGCUUUACUUGCCGUGUAAAAGGAGGAAAGGGGUGGAAAAAAACCGACUUUCUGCAUUUAACUACAAAAAAAGUUUAUGUUUAGU	0.424
ACCAUGAAACCUACACUCCCUGGUAUCAUAGCGCGUCAUCACCUCAACAAGUCAGUCGUCUCCAUUGAUAUUUGUACAAAAGGUAUACAUGGGGAACACGUGUUCAUUCA	0.328
CACGUGCUCUGUUCUCGGGGUUGUUCCAUUCAUGCCUUCUUGGAGGGUGAGGGUGGCUUGGGAACCGACCCAGUGAUCAUGCCUACUUUCUUCUUUGUAUCUCCCUCCUU	0.335
CCUUAUUGUGGGUGAUGAGGCGGUGCCUAAAAACCACAUAUAUAUAAUCCCCUGGGUAUUACAUAUUCUGCAAGCCCUGUUAGUGGGGAGAUGGUAGUGGCAAUAGCAGC	0.463
UCAGUGAGACACGCAGUUUGUGUUCAGUUUUUACAUCCUCUGAUUGUUUAUCUUGUGCAGAUAAACACAAAGAGAAGGUGCUUGCUAGCAGGGACACUGCUGCCAUGUCC	0.702
UGGUCUGGCCACGUUUGUUAAAUCCUUAUACUGAUAUUCUUCUAAAGAGUAAAUCUCAUCAUUUUUCCAGACAAAUUUUGAGGGGUUUCUCUGUUUUGUGGACAGGCAGC	0.603
AGUUUGCGCUGCAUGGUACUUGUGAAGCUUAAAUAUUUUGAGUGUUCUACUGUGUCUAGGAUUGUUGGGAUUGUACAUAUGGUACUCUUUCAUAAAUGAUAAAUGAUUCU	3.21
UUGCCACUGAAAUGUUUUUUUACUUGUUGAUAGUGUCAGGGCCCCCCUUCCAUCCCCAUGGGCUUGACUCUCAACCUGUUACUGUAAACUGCGAUCCUUCCCACCGUCAG	0.704
UCCUCUCUCCUCCUCCUGGCUUUUGGAAAGGCUUGGCUGUGUUGGGGAGUCUCUCUUAGCCCUUUCAGGAAUUUCUGUUCAGGCUUCCUCCUCCUCAUCAGCUAUUUUAC	0.474

Block 3 — method: RNA Bind-n-Seq; form: RNA; sample: in vitro; concentration: not given; notes: RNA with constant flanks, ends assumed; reference: input RNA pool; reading: higher = stronger binding
Target: RING finger protein unkempt homolog, zinc fingers 1-6, GST-SBP tag (UNK, Homo sapiens, UniProt Q9C0B0, residues 30-357)
Shared flanks, not repeated: GGGAGUUCUACAGUCCGACGAUC … CAACAGAGGAUUGAGCAUCA
Residues (chain): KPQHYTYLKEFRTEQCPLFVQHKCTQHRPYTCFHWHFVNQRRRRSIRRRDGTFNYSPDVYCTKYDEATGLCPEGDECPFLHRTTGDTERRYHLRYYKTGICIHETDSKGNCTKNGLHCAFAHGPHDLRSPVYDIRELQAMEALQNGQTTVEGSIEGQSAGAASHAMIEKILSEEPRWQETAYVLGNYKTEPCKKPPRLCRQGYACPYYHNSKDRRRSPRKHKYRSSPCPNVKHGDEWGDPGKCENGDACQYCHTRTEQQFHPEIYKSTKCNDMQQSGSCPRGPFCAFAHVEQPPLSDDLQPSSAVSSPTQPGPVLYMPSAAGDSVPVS
Sequence	bound/input enrichment [ratio]
AAACUGGCUGUUCAGAUUGGCAAAGCAGGUCUGUUGAUGUCUGCCAUCACAGUUAUCAUUCCCGUAUUAUAUUUUGUCAUUGACACCUUCUGGGUUCAGAAAAGACCAUGGCUUGCUGAG	0.243
GCCAUUGGUCUUAUGGGUUAUAGGUUGAGUCCUCAAACAUUAACUACUAUUGUUAAACGUUACCGCAAGAAUGGCAGAAUUUUCUUUGAUGAUUAUGUUGCUUGCUGUGUGAAGCUUCGA	0.12
UUGAAAAACACAGAUAUCAAAGUUGUUGAUUUUGGAAGUGCAACAUAUGACGACGAACAUCACCGUACUUUGGUGUCCACAAGGCACUACAGGGCUCCAGAGGUCAUUUUGGCUCUAGGU	0.226
UCGACUCCAGCGGCCCCGACAGCACGGAAGCAGCUGGAUAAAGAACAGGACCUUGCCUCACCGUAUUCGAUCAGAUUCAGAAGAUAUCUGUUUAUUUACGAAGGAUGAACCCAAUUCAAC	0.0393
CUUACCUCUUACAAAAAAAAGAAAAAAAAAGAAAAAGUUCAUUUCUUCAUUCUGUUUGUAUCCCGCGAAGCUGAAUGUCAGAAGCCCCUCUGUCCACACACAAAGUCUGCAUGUAUUGGU	0.642
GUAAUAGUAGCAAAUCCUAGGGAAGAAAUAAUCGUGAAAAAUAAAGAUGAAGAAGAGAAGUCCGUCCGUAAUAACAUCCUUCAUAAUCAACAAGAGUUACCUACAGCUCUUACUAAAUUG	1.8
GGCUGCAGAGUCAUUCAGCGUAUCUUAGAGCACUGCACGGCAGAGCAGACCUUACCCAUCUCCGAAGAACUUCACCAACACACAGAACAGUUGGUACAGGAUCAGUAUGGCAAUUAUGUU	0.385
GACUUUGGGACUGGUCCUCGCAACGCAGCCUUCUAUAGCCCUCAUGGACAUAUAUCCGUGCUGGCUGGAUUUGGAAAUCUUCGAGGACAAAUGGAAGUAUGGGAUGUUAAAAACUACAAG	0.243
AUCCAUGACCUCGCAUGCCACGCUGUCACCAUCUGCAGUCCAGAUUAUUUGCUGGAUGUUUCCGAACUAAGUAAAUACACUUUAACCGCUGUGGAGCUUUGCAGACAAUGCCAGAUGGAU	0.153
GGCCAGGCUUUUGAGCUGAUCUUGAAGCCACCAUCUCCUAUCUCAGAAGCCCCACGAACUUCCGCUUCUCCAAAGAAGAAAGACCUGUCCCUGGAGGAGAUCCAGAAGAAACUGGAGGCU	0.0491
AGCUCUAGGCUUUUCAGAUGUGGAUCAUACCUAUGCUCAAAGAACUCAGCUCUUUGACACCUCCGUAAAUUUCUUUCCUGACAGCAUGACUCCUCCUAAAGGCAACCUGGUAGACCUGAU	0.294

Block 4 — method: protein-binding microarray; form: double-stranded DNA, one strand shown; sample: in vitro; concentration: 250 nM; notes: 60-bp whole probe; together with: salmon DNA 0.4 mg/ml; reference: random background probes; reading: higher = stronger binding; shared flanks, not repeated: GCCTAGCAC … GTCTTGATTCGCTTGACGCTGCTG
Target: Interferon regulatory factor 5, full length, phosphomimetic (IRF5, Homo sapiens, UniProt Q13568-2, residues 1-514, K96S/S451D/S453D/S456D/S462D)
Sequence	log fluorescence [z-score]
GACTATATCGGGTTTCGAGACGTGCTA	3.46
CTAGGTTTCCTACTGCTTTAGTGCTAG	0.308
GACGGACTGCACACTGGGGACGTGCTA	-0.541
GACGATATCGGGACAGGAGACGTGCTA	1.09
GACGGTTTCGGGTTTCGGAACGTGCTA	8.2
TTAGCACTGGACTTTCGGTTAGTGCTA	9.63
AAACTCGTGTTTTTCTCCTAGTGCTAG	0.583
TTAGGTTCCCTTTTCCTTTGGTGCTAG	0.305
TTAGGTTTCGGTATCGGGTAGTGCTAG	11
TCACAGATGTTTTTCATACTGTGCTAG	0.794
TCATTTCCATTTTCTAAAACTGTGCTA	2.14
GACGGTATCGACCCTGGGGACGTGCTA	1.02
TTAGGACTGGACTCTCGGTTAGTGCTA	0.0352
TTAGGTTTCCTACTTCTTTAGTGCTAG	0.772
TTAGGTTTCGACATTCGGTTAGTGCTA	6.91
TGATCTCTGGTCTTTGTCAGGTGCTAG	0.111
AGTATGTTCACTATTTAAGGGTGCTAG	0.356
GCACTGTGCCTGCTGCCCTTGTGCTAG	-0.817
TTAGATTTCAGTTCCGAGTAGTGCTAG	2.03
